# Results gathered from unrelated publications.
# Each numbered part is a random draw from the data of one study; scales do not carry over between parts. Substitutions count along the parent as printed.

# Sample 1 — target: CCND2, cyclin fold, Cln2 fusion (human); method: yeast growth competition, sequencing; sample: yeast; notes: strong parent motif; baseline: not given; direction: higher = stronger binding
# Parent: E2F1 docking peptide (human); PPVKRRLDFETDH; partner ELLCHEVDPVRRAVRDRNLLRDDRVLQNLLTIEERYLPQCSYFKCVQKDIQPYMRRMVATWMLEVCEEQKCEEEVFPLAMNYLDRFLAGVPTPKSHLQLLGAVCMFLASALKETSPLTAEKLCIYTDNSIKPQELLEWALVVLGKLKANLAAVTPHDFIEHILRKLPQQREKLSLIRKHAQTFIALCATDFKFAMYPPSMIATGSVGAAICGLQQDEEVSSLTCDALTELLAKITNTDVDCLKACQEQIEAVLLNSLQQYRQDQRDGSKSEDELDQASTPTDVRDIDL
Change,normalised enrichment score
D12Y,2.03
F9R,0.147
P2Y,0.901
T11D,2.02
K4I,2.02
P2A,0.886
V3N,-0.0794
R5E,0.105
D8T,2.09

# Sample 2 — method: RNA Bind-n-Seq; form: RNA; sample: in vitro; concentration: 365 nM; baseline: no-protein control; direction: higher = stronger binding
# Target: RNA binding protein fox-1 homolog 2, RRM domain, GST-SBP tag (RBFOX2, Homo sapiens, UniProt O43251-10, residues 100-194)
# Notes: natural RNA segment, single round, ends assumed
# All sequences stand within: GGGAGUUCUACAGUCCGACGAUC … UGGAAUUCUCGGGUGCCAA
Strand,RBNS enrichment (R)
AAUACAGCAGGCAAAGGACUGAGUGAAGCUGGCCACACCACACGUUUAUACGGAUUUCGGAUUUCUACCCACGUUUCCUCACUCUGUUUUCUAUAUAUUCUAUAUAAAUA,0.752
AAAUGUAAUACCUGAGCAAGCACAGCCUUGGGUGUGCUUGGACAAGAGACCCAGCGGCAGAGCACCUUUUACAUUUUGGACCGUUCAUGAAUGGGCAAUGUUGUGUUGAU,0.545
UGGGGUCAUCUGGUUAUUUAGGGCAUUGAGACUGGAGCCGUGGCUCAGAUGAUUGGGGCAGAAAAGGCAGGGUGGCCCACACCUGCUCUGACUGCUAGCUUCCCACAGAU,0.559
GGAGACAGCAAGCAAAGCCAGCAGGACAUGAAGUUGCUAUUAAAUGGACUUCGUGAUUUUUGUUUUGCACUAAAGUUUCUGUGAUUUAACAAUAAAAUUCUGUUAGCCAG,0.565
AAGCAGCCAACAGGCUCCCUCUCACUUAAGAGAGUUCUAAUUAAUAACACUAAAUUCUUCCUGAGAAAUGACUCCUCUUGGUUUGGUUUGAAGUUUUUCAGUGAAGGAAA,0.458
ACAAGACCCUUGGGAGUUUUAAUUCUGUUUUGUACUUGCCCUGUGGGGCCUCCACUGCUUUUCUAUGGGAGACACUCUUAAUUUAACAGAUGAGAAUAUUUUGAAACUCU,0.763
AGUGCCACAAGCAUGACCUUGGUGGACACAGGAAGCCACAGGAAAAUUCUUGACAGUCUGUGUCCCAUCAGUCACUGCAUUUUUCUUUUUCCAAAUACAUCCUGUUGGAU,1.93
GCUCUUGUGAAGCUCCAGGUAGACGGGAAUGUUCCUCGGUUCAGGUGAGAGCCAGAUCUAGAGAGUCAGAACCCGGGGGUCUUGAGAUAGGAGGCAAAGCAGCUAUGGAA,0.848
UUGUAAGGGGGUGGGUGGGACAGUAAAUUUGUAUUGUCUCGAUGUACAGUUUAACGGGGAUAGAGGGGGAAUAAUGUCCAUACCAUUGUGUGUGGAGGAUUUACAGCUAA,0.566

# Sample 3 — method: protein binding microarray; form: double-stranded DNA, one strand shown; sample: in vitro; concentration: not given; baseline: not given; direction: higher = stronger binding
# Target: Histone acetyltransferase KAT6A, winged helix 1, GST fusion (KAT6A, Homo sapiens, UniProt Q92794, residues 1-85)
# Notes: 8-mer, flanks averaged, mean of 2 arrays, mostly near background
# Residues (chain): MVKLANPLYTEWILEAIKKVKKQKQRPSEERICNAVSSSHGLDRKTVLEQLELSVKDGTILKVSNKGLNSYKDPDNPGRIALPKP
Strand,E-score
ACCTCCTG,-0.226
CGGAAGGC,0.181
CAACGAGC,-0.0575
GCTGACAA,-0.00211
ATAGAGAC,-0.178
CACATACA,-0.196

# Further values, each from its own experiment
Substance,target,test,test system,conditions,scale,quantity,result
"PhoQ, residues 284 288 289 292 302 303 GLASVI","PhoP, residues 12 14 15 18 19 TTLRV (Escherichia coli, UniProt P23836)","Sort-seq, measured: YFP reporter",E. coli,"PhoQ-PhoP variant library, added: 10 µM Mg2+","baseline: high Mg2+ state, higher = stronger signaling",fold induction,1.95

# Repeated from above (sample 1):
Change,normalised enrichment score
D8T,2.09
V3N,-0.0794
F9R,0.147
